Measured values collected from several papers.
± marks the error that the study gave.
Hypoxanthine-guanine phosphoribosyltransferase: Hypoxanthine-guanine phosphoribosyltransferase (Trypanosoma cruzi, UniProt Q4DGA3)
Drd2: D(2) dopamine receptor (Drd2, Rattus norvegicus, UniProt P61169)
CASP3: Caspase-3 (CASP3, Homo sapiens, UniProt P42574)
GBA3: Cytosolic beta-glucosidase (GBA3, Homo sapiens, UniProt Q9H227)
CHRM1: Muscarinic acetylcholine receptor M1 (CHRM1, Homo sapiens, UniProt P11229)
KDM2A: Lysine-specific demethylase 2A (KDM2A, Homo sapiens, UniProt Q9Y2K7)
CHRM3: Muscarinic acetylcholine receptor M3 (CHRM3, Homo sapiens, UniProt P20309)
SLC10A2: Ileal sodium/bile acid cotransporter (SLC10A2, Homo sapiens, UniProt Q12908)
PTPN1: Tyrosine-protein phosphatase non-receptor type 1 (PTPN1, Homo sapiens, UniProt P18031)

| SMILES | target | assay | system | setting | Ki [nM] |
| --- | --- | --- | --- | --- | --- |
| Nc1nc2c(CNCCCP(=O)(O)O)c[nH]c2c(=O)[nH]1 | Hypoxanthine-guanine phosphoribosyltransferase |  |  |  | 3630 ± 320 |
| N=C(N)Nc1nc2ccc(Cl)cc2[nH]1 | Bifunctional dihydrofolate reductase-thymidylate synthase, DHFR domain (Trypanosoma cruzi, UniProt Q27793) | enzyme activity, competitive inhibitor |  | with: dihydrofolate 60 µM, NADPH 100 µM | 10600 |
| CN(CCON=Cc1ccc(C(F)(F)F)cc1)Cc1ccccc1 | Sigma non-opioid intracellular receptor 1 (Sigmar1, Rattus norvegicus, UniProt Q9R0C9) | binding |  |  | 27.4 ± 0.86 |
| Cc1cc(OCCCN2CCN(c3cccc4sccc34)CC2)ccc1CN1CCCCC1 | Drd2 | cell-free assay, radioligand |  |  | 250 |
| CC(=O)N[C@H](C(=O)N[C@@H](CC(=O)O)C(=O)N[C@H](CCN)C(=O)N[C@H](C(=O)N[C@H](C=O)CC(=O)O)C(C)C)C(C)C | CASP3 | enzyme activity, inhibitor, fluorescence |  | pH 7 | 2290 |
| OC[C@@H]1[C@@H](O)[C@H](O)[C@@H](O)CN1CCCCCOCC12CC3CC(CC(C3)C1)C2 | GBA3 | enzyme activity, inhibitor |  |  | 27600 |
| O=C1Nc2ccccc2N(C(=O)CN2CCC(CCCCN3CCC(OC(=O)C(c4ccccc4)c4ccccc4)CC3)CC2)c2ccccc21 | CHRM1 | ligand displacement, radioligand |  |  | 20.9 |
| CC[C@H](C)[C@H](NC(=O)[C@H](CCC(N)=O)NC(=O)[C@H](CCC(=O)O)NC(=O)[C@H](CCC(=O)O)NC(=O)[C@H](CCCCN)NC(=O)[C@@H]1CCCN1C(=O)[C@H](CC(C)C)NC(=O)[C@H](CO)NC(=O)[C@H](CO)NC(=O)[C@H](CC(C)C)NC(=O)[C@@H](NC(=O)[C@H](C)NC(=O)[C@H](CO)NC(=O)[C@H](CCCNC(=N)N)NC(=O)CNC(=O)CNC(=O)[C@@H](N)CCCNC(=N)N)C(C)C)C(=O)NCC(N)=O | Melanocyte-stimulating hormone receptor (MC1R, Homo sapiens, UniProt Q01726) |  | HEK-293T transfected | 2 h, 37 °C, with: Eu-NDP-MSH | > 5000 |
| COC(=O)[C@H](CCCCN(C)CCCCN(O)C(=O)/C=C/C(=O)O)NC(=O)OCc1ccccc1 | KDM2A | ligand displacement, FP |  |  | 120 |
| COc1ccc(CCCN[C@@H]2CCC[C@H]2CN[C@@H]2CCC[C@H]2CNCCCCN[C@@H]2CCC[C@H]2CN)cc1 | Amine oxidase [flavin-containing] B (MAOB, Homo sapiens, UniProt P27338) | enzyme activity, inhibitor |  |  | > 500000 |
| CCCCOc1ccc(C(=O)OCCN2CC=CCC2)cc1 | CHRM3 | ligand displacement, radioligand |  | cell membranes | 7760 |
| CC(C)C[C@H](NC(=O)[C@H](CC(C)C)NC(=O)[C@H](Cc1c[nH]cn1)NC(=O)[C@H](CC(C)C)NC(=O)[C@@H](NC(=O)[C@H](CCC(=O)O)NC(=O)[C@H](CO)NC(=O)[C@H](Cc1c[nH]c2ccccc12)NC(=O)[C@H](C)NC(=O)[C@@H](N)[C@@H](C)O)C(C)C)C(=O)N[C@@H](CO)C(=O)N[C@@H](CCCNC(=N)N)C(=O)NCC(=O)NCC(=O)NCC(=O)N[C@@H](CO)C(=O)N[C@@H](CCCCN)C(N)=O | ATP2B4 (Homo sapiens, UniProt P23634) | enzyme activity, inhibitor | human erythrocyte ghosts | 37 °C | 45000 ± 4000 |
| O=P(O)(O)CC[C@@H](CO)NCc1c[nH]c2c(O)nc(O)nc12 | Hypoxanthine-guanine phosphoribosyltransferase |  |  |  | 13400 ± 900 |
| NCc1cc(C(=O)NCCN2CCN(CCCCC3CCN(CCCN4C(=O)CCc5ccccc54)CC3)CC2)cc(C(=O)NCCN2CCN(CCCCC3CCN(CC(=O)N4c5ccccc5NC(=O)c5ccccc54)CC3)CC2)c1 | CHRM3 | ligand displacement, radioligand |  |  | 13.2 |
| CC(CCC(=O)NC(CCC(=O)Nc1ccccc1O)C(=O)O)C1CCC2C3C(O)CC4CC(O)CCC4(C)C3CCC12C (stereo not shown) | SLC10A2 | taurocholate uptake, inhibitor | ASBT-MDCK | 10 min, with: taurocholate 2.5 µM | 3540 |
| Nc1ncnc2c1ncn2[C@@H]1O[C@H](C(=O)NCCF)[C@@H](O)[C@H]1O | Adenosine receptor A1 (ADORA1, Homo sapiens, UniProt P30542) | ligand displacement, radioligand |  | cell membranes | 3.4 |
| CC(=O)N[C@@H](CCC(N)=O)C(=O)N[C@@H](CC(=O)O)C(=O)N[C@H](C(=O)N[C@@H](CCCNC(=N)N)C(=O)N[C@H](C=O)CC(=O)O)[C@@H](C)O | CASP3 | enzyme activity, inhibitor, fluorescence |  | pH 7 | 72.4 |
| C=C1CCC(=O)C(C)CCC2C1CC2(C)C(=O)C=CC(C)(C)O (stereo not shown) | Pancreatic triacylglycerol lipase (PNLIP, Sus scrofa, UniProt P00591) | enzyme activity, inhibitor |  |  | 32500 |
| CC(C)C[C@@H](C=O)NC(=O)[C@H](Cc1ccc(Br)cc1)NC(=O)[C@H](CCCCN)NC(=O)[C@H](CO)NC(=O)[C@H](CO)NC(=O)OCc1ccccc1 | Prostate-specific antigen (Homo sapiens, UniProt P07288) | enzyme activity, inhibitor, fluorescence |  | pH 7.8 | > 500000 |
| C[C@H](CCC(=O)NCC(=O)O)[C@H]1CC[C@H]2[C@@H]3[C@H](OC(=O)c4cccnc4)C[C@H]4C[C@H](O)CC[C@]4(C)[C@H]3CC[C@]12C | SLC10A2 | transporter uptake, inhibitor, radiometric |  |  | 15600 |
| CCCCCC[n+]1ccccc1C=Cc1ccc(N(C)C)cc1 | KDM2A | ligand displacement, FP |  |  | 280 |
| C[C@@H]1O[C@@H](O[C@@H]2C(=O)c3c(O)cc(O)cc3O[C@@H]2c2ccc(O)cc2)[C@H](O)[C@H](O)[C@H]1O | PTPN1 | Lineweaver-Burk secondary plots |  | free enzyme | 3190 |

| SMILES | target | assay | system | setting | Ki [nM] |
| --- | --- | --- | --- | --- | --- |
| NC1CN(CCCCC2CCN(CC(=O)N3c4ccccc4NC(=O)c4ccccc43)CC2)CCN(CC(=O)N2CCC(N3CCC(n4c(=O)[nH]c5ccccc54)CC3)CC2)C1 (stereo not shown) | CHRM3 | ligand displacement, radioligand |  |  | 58.9 |
| CCC[C@H](O)[C@H](NC[C@@H](O)[C@H](Cc1ccccc1)NC(=O)c1cccc(C(=O)N(C)[C@H](C)c2ccccc2)c1)C(=O)NCC(C)C | Cathepsin D (CTSD, Homo sapiens, UniProt P07339) | enzyme activity, inhibitor |  |  | 473 |
| CCC(=O)NCc1cc(C(=O)NCCCC(=O)NCCCCCOc2nsnc2C2=CCCN(C)C2)cc(C(=O)NCCN2CCN(CCCCC3CCN(CC(=O)N4c5ccccc5NC(=O)c5ccccc54)CC3)CC2)c1 | CHRM1 | ligand displacement, radioligand |  |  | 1.32 |
| COc1cc(CN2CCOCC2)ccc1OCCCN1CCN(c2cccc3sccc23)CC1 | Drd2 | cell-free assay, radioligand |  |  | 73 |
| O=C(NCc1ccc(OP(=O)(O)O)c(OP(=O)(O)O)c1)OCC1c2ccccc2-c2ccccc21 | Signal transducer and activator of transcription 5A, SH2 (Homo sapiens, UniProt P42229) | ligand displacement, FP |  |  | 11000 |
| CCC(=O)NC1CN(CCCCC2CCN(CC(=O)N3c4ccccc4NC(=O)c4ccccc43)CC2)CCN(CCCOc2nsnc2C2=CCCN(C)C2)C1 (stereo not shown) | CHRM1 | ligand displacement, radioligand |  |  | 4.07 |
| CNC(=O)c1ccc(-c2cccc3c2OC(CN)C3)cc1 (stereo not shown) | Beta-2 adrenergic receptor (ADRB2, Homo sapiens, UniProt P07550) | binding, radioligand displacement | SNAP-tagged receptor HEK membranes | with: 1 nM [3H]dihydroalprenolol | 1000 |
| N#Cc1c(N)nc(SCc2ncc[nH]2)c(C#N)c1-c1cccc(F)c1 | Adenosine receptor A3 (ADORA3, Homo sapiens, UniProt P0DMS8) | ligand displacement, radioligand |  | cell membranes | 261 |
| CC(CCC(=O)NC(CCC(=O)Nc1cccc(N)n1)C(=O)O)C1CCC2C3C(O)CC4CC(O)CCC4(C)C3CCC12C (stereo not shown) | SLC10A2 | taurocholate uptake, inhibitor | ASBT-MDCK | 10 min, with: taurocholate 2.5 µM | 13200 |
| O=C1Nc2ccccc2N(C(=O)CN2CCC(CCCCN3CCC(N4CCC(n5c(=O)[nH]c6ccccc65)CC4)CC3)CC2)c2ccccc21 | CHRM3 | ligand displacement, radioligand |  |  | 97.7 |
| CC(C)(C)COCCCCCN1C[C@H](O)[C@@H](O)[C@H](O)[C@@H]1CO | GBA3 | enzyme activity, inhibitor |  |  | 119000 |
| CC[C@H](C)[C@H](NC(C)=O)C(=O)N[C@H](C(=O)N[C@H](C(=O)N[C@H](CCCCN)C(=O)N[C@H](C=O)CC(=O)O)C(C)C)[C@@H](C)O | CASP3 | enzyme activity, inhibitor, fluorescence |  | pH 7 | > 100000 |
| CN1CCC=C(c2nsnc2OCCCCCNC(=O)CCCCCCC(=O)NCCCCCOc2nsnc2C2=CCCN(C)C2)C1 | CHRM3 | ligand displacement, radioligand |  |  | 7.24 |
| CC[C@H](C)[C@H](NC(C)=O)C(=O)N[C@H](C(=O)N[C@H](C(=O)N[C@@H](CCCCNC(C)=O)C(=O)N[C@H](C=O)CC(=O)O)C(C)C)[C@@H](C)O | CASP3 | enzyme activity, inhibitor, fluorescence |  | pH 7 | 45.7 |
| CCCCCCOc1ccc(C(=O)OCC[N+]2(C)CC=CCC2)cc1 (stereo not shown) | Muscarinic acetylcholine receptor M5 (CHRM5, Homo sapiens, UniProt P08912) | ligand displacement, radioligand |  | cell membranes | 162 |
| CC(=O)N[C@H](C(=O)N[C@H](C(=O)N[C@@H](CN)C(=O)N[C@H](C=O)CC(=O)O)C(C)C)[C@@H](C)O | CASP3 | enzyme activity, inhibitor, fluorescence |  | pH 7 | 37200 |
| CN1CCN(CCCCC2CCN(CC(=O)N3c4ccccc4NC(=O)c4ccccc43)CC2)CC(N)C1 (stereo not shown) | CHRM3 | ligand displacement, radioligand |  |  | 562 |
| CC(=O)N[C@H](C(=O)N[C@@H](C)C(=O)N[C@H](C=O)CC(=O)O)C(C)C | CASP3 | enzyme activity, inhibitor, fluorescence |  | pH 7 | > 100000 |
| CC(C)=CCc1cc(C2CC(=O)c3c(O)cc(O)cc3O2)c2c(c1O)C=CC(C)(C)O2 (stereo not shown) | PTPN1 | enzyme activity, inhibitor |  |  | 6380 |
| CC[C@H](C)[C@H](NC(C)=O)C(=O)N[C@H](C(=O)N[C@H](C(=O)N[C@@H](CCN)C(=O)N[C@H](C=O)CC(=O)O)C(C)C)[C@@H](C)O | CASP3 | enzyme activity, inhibitor, fluorescence |  | pH 7 | 9120 |
| O=C(Cc1c(-c2ccccc2)n[nH]c1-c1ccccc1)NO | Meprin A subunit beta (MEP1B, Homo sapiens, UniProt Q16820) | enzyme activity, inhibitor |  |  | 116 |

For quick reference, copied from above:
| SMILES | target | assay | system | setting | Ki [nM] |
| --- | --- | --- | --- | --- | --- |
| CC(CCC(=O)NC(CCC(=O)Nc1ccccc1O)C(=O)O)C1CCC2C3C(O)CC4CC(O)CCC4(C)C3CCC12C (stereo not shown) | SLC10A2 | taurocholate uptake, inhibitor | ASBT-MDCK | 10 min, with: taurocholate 2.5 µM | 3540 |
| CCCCOc1ccc(C(=O)OCCN2CC=CCC2)cc1 | CHRM3 | ligand displacement, radioligand |  | cell membranes | 7760 |
| COc1ccc(CCCN[C@@H]2CCC[C@H]2CN[C@@H]2CCC[C@H]2CNCCCCN[C@@H]2CCC[C@H]2CN)cc1 | Amine oxidase [flavin-containing] B (MAOB, Homo sapiens, UniProt P27338) | enzyme activity, inhibitor |  |  | > 500000 |
| Nc1nc2c(CNCCCP(=O)(O)O)c[nH]c2c(=O)[nH]1 | Hypoxanthine-guanine phosphoribosyltransferase |  |  |  | 3630 ± 320 |
| CC(CCC(=O)NC(CCC(=O)Nc1cccc(N)n1)C(=O)O)C1CCC2C3C(O)CC4CC(O)CCC4(C)C3CCC12C (stereo not shown) | SLC10A2 | taurocholate uptake, inhibitor | ASBT-MDCK | 10 min, with: taurocholate 2.5 µM | 13200 |
